Measurements from different studies.
A part holds a random share of what one study measured.

Sample 1
Target: Hepatocyte nuclear factor 3-beta, forkhead domain (FOXA2, Homo sapiens, UniProt Q9Y261, residues 142-269)
Method: protein-binding microarray
Molecule type: double-stranded DNA, one strand shown
Matrix: in vitro
Concentration: not given
Setting: k-mer, scored over probes, only values ≥0.25
Direction: higher = stronger binding
Endpoint: E-score
Target sequence (chain): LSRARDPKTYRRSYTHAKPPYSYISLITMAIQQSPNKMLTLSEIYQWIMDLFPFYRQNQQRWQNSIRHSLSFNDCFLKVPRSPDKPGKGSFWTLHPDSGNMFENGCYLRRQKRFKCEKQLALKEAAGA
CAATAACA: 0.343
GATAACAA: 0.261
ATATTAAC: 0.293
ACGAATAC: 0.278
ATAAGACG: 0.307
AAATATCA: 0.287
ATTACATA: 0.383
AATTATAG: 0.256
GAATAACA: 0.323
ATTATGCG: 0.259
TATATACA: 0.401
AGTAAACA: 0.392
TGAGTACA: 0.284
ATGACTTA: 0.261
AATGATGA: 0.301

Sample 2
Target: Sal-like protein 4, full length isoform B (SALL4, Homo sapiens, UniProt Q9UJQ4-2, residues 1-616)
Method: universal PBM
Molecule type: double-stranded DNA, one strand shown
Matrix: in vitro
Concentration: not given
Setting: 8-mer, flanks averaged, mean of replicates
Direction: higher = stronger binding
Endpoint: E-score
AGTGGACA: 0.021
AAAGGAGT: 0.0489
TGCGCCCA: -0.245
GTTAGGAA: -0.00608
CTATAGAG: 0.0866
GCTCATAC: 0.0681
CTAGCCTA: 0.0177
AATGCGAA: 0.164
ACACAAGT: 0.139
AAGCCAGA: -0.214
GAGTACCC: -0.249
AGTTCGAA: 0.0262
AGTTCGAG: -0.0392
AGGAGAAA: 0.0423
CGTGCCAA: -0.261
AGACGAAT: 0.197
GAGAAAAA: 0.129
TGCCGACA: -0.144
AAACATCG: -0.18
GTCCCCGA: -0.198
CCTAAGCG: -0.145
AACGACGA: 0.0103
ACCTTCTC: -0.093
ACTTGGGC: -0.118
ACAGTGTA: 0.147

Sample 3
Target: Interferon regulatory factor 7, full length, phosphomimetic (IRF7, Homo sapiens, UniProt Q92985, residues 1-503, S101K/S471D/S472D/S475D/S476D/S477D/S483D/S484D/S487D)
Method: protein-binding microarray
Molecule type: double-stranded DNA, one strand shown
Matrix: in vitro
Concentration: 250 nM
Setting: 60-bp whole probe
Together with: salmon DNA 0.4 mg/ml
Relative to: random background probes
Direction: higher = stronger binding
Endpoint: log fluorescence
Constant ends, left off below: GCCTAGCAC … GTCTTGATTCGCTTGACGCTGCTG
Residues (chain): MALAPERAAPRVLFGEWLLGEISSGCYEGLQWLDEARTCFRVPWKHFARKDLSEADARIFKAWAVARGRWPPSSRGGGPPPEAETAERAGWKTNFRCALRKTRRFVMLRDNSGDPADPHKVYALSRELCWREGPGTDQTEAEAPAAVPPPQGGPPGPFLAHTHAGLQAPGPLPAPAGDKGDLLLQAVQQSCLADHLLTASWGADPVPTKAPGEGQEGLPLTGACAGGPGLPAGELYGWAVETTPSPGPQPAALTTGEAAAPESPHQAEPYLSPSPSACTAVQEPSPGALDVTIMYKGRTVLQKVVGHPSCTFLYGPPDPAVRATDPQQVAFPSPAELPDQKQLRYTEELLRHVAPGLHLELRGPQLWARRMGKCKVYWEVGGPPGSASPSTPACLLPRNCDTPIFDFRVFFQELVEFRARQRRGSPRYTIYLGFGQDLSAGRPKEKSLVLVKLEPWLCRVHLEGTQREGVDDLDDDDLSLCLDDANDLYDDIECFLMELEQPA
TCACTTTCCCAGCCTGGGACTGTGCTA: 3.22 z-score
GACGGTTTCGACACTTGGGACGTGCTA: 3.67 z-score
TCAAGTAGCTTTCTGAGACTGTGCTAG: -0.554 z-score
TTAGGTCTCCTGTTCCTTTAGTGCTAG: 0.24 z-score
GACGGTTTCCTTCTCCGGACGTGCTAG: 2.83 z-score
GACGGTTCCGGTTTCGCGACGTGCTAG: 6.28 z-score
CTCTACTTGTGTCTAGAGATGTGCTAG: 0.121 z-score
TTAGGACTGGGTACCGGTTAGTGCTAG: 0.205 z-score
TCAGGAAATGGGAAACCCACTGTGCTA: -0.087 z-score
TTAGGTCTCGGTATCGGTTAGTGCTAG: 3.42 z-score
ACATATATACAGAGATAGATGTGCTAG: 0.442 z-score
GACGGTCTCCTACTGATGACGTGCTAG: -0.178 z-score
GAAATTTTTTTTCTAACTAAGTGCTAG: 0.478 z-score
GACGACCTGGGGTATCGAGACGTGCTA: -0.42 z-score
GCCTACTCGCTCGTCCGGAGGTGCTAG: 0.493 z-score
GACGGTATCCTTCCCCTGACGTGCTAG: 0.0596 z-score
GACGGTTTCCACACTGGGGACGTGCTA: 1.38 z-score
ATGAGCTTCAAACCATAACCGTGCTAG: -0.263 z-score
GACGATATCGGGTTTCGAGACGTGCTA: 2.98 z-score

Sample 4
Target: Prothrombin, mature alpha-thrombin (F2, Homo sapiens, UniProt P00734)
Method: aptamer microarray, sandwich
Molecule type: DNA with 2'F-ANA
Matrix: in vitro
Concentration: 200 nM
Setting: whole 15-mer aptamer, many near background
Together with: Cy3 exosite-II aptamer, 400 nM
Direction: higher = stronger binding
Endpoint: mean fluorescence intensity
Oligonucleotide: GGTTGGTGTGGTTGG
2'F-ANA at 3 4 6 13 15: 381 a.u.
2'F-ANA at 1 2 3 5 8 11 13 14 15: 49.4 a.u.
2'F-ANA at 1 3 5 7: 63 a.u.
2'F-ANA at 1 4 9 10 14: 170 a.u.
2'F-ANA at 3 4 5 6 7 14 15: 50.5 a.u.
2'F-ANA at 1 2 3 5 6 8 10 11 12 13 15: 82.8 a.u.
2'F-ANA at 5 6 7 10 12 14: 46.5 a.u.
2'F-ANA at 6 8 14: 189 a.u.
2'F-ANA at 1 9 12 15: 419 a.u.
2'F-ANA at 1 4 5 7 8 9 10 13 14 15: 48 a.u.
2'F-ANA at 1 2 7 8 9 10 11 12 13 14 15: 47.6 a.u.
2'F-ANA at 1 6 7 8 10 14 15: 49.7 a.u.
2'F-ANA at 2 8 9 10 13: 111 a.u.
2'F-ANA at 1 2 3 4 6 9 13 14 15: 57.6 a.u.
2'F-ANA at 2 4 6 13: 200 a.u.
2'F-ANA at 1 4 5 6 14 15: 46.7 a.u.
2'F-ANA at 3 4 9 10 13: 256 a.u.
2'F-ANA at 1 2 3 4 5 6 8 9 11 15: 56.9 a.u.
2'F-ANA at 2 3 9 11 14 15: 372 a.u.
2'F-ANA at 1 2 3 4 6 8 9 11 15: 147 a.u.
2'F-ANA at 1 2 3 6 7 9 10 12 14 15: 55.1 a.u.
2'F-ANA at 2 3 5 15: 110 a.u.
2'F-ANA at 1 3 4 5 8 9 10 11 12 14: 47.9 a.u.
2'F-ANA at 1 2 4 5 6 7 9 10 12 15: 76.4 a.u.
2'F-ANA at 2 3 4 5 8 9 10 11 12 13 14: 53.9 a.u.

Sample 5
Target: Histone acetyltransferase KAT6A, winged helix 1, GST fusion (KAT6A, Homo sapiens, UniProt Q92794, residues 1-85)
Method: protein binding microarray
Molecule type: double-stranded DNA, one strand shown
Matrix: in vitro
Concentration: not given
Setting: 8-mer, flanks averaged, mean of 2 arrays, mostly near background
Relative to: not given
Direction: higher = stronger binding
Endpoint: E-score
Construct (chain): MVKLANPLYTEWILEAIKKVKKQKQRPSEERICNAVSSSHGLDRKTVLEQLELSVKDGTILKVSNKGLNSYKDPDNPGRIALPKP
AGAGAATC: -0.114
GTATCGAA: 0.0275
CGTTTACC: 0.0916
GCCCAGGA: -0.263
CTTGTAGC: -0.0621
AGCGAGCT: -0.0371
AACCCTCA: -0.209
CACGGATG: 0.186
GCGCTCTA: 0.257
CGCACTCA: 0.154
ACCGCAGG: 0.152
GCTCTTCA: 0.00864
GAAATCAA: -0.0237
GACACAAC: -0.0642
CCAAGCAC: -0.178
CGTGGAAG: 0.136
GATAAAAC: 0.0523
ATGGAAAA: -0.145
ATGTGAAT: -0.133
GCACGCTA: 0.17
CGTCCGGA: 0.0944
